Experimental data collected from several papers.
Every numbered part comes from another study and shows a few of its results, in no order. Substitutions count along the parent as printed.

Series 1 — technique: universal PBM; form: double-stranded DNA, one strand shown; medium: in vitro; concentration: 600 nM; direction: higher = stronger binding
Target: Sal-like protein 4, full length isoform A (SALL4, Homo sapiens, UniProt Q9UJQ4, residues 1-1053)
Sequence of UniProt Q9UJQ4 (whole entry, looked up): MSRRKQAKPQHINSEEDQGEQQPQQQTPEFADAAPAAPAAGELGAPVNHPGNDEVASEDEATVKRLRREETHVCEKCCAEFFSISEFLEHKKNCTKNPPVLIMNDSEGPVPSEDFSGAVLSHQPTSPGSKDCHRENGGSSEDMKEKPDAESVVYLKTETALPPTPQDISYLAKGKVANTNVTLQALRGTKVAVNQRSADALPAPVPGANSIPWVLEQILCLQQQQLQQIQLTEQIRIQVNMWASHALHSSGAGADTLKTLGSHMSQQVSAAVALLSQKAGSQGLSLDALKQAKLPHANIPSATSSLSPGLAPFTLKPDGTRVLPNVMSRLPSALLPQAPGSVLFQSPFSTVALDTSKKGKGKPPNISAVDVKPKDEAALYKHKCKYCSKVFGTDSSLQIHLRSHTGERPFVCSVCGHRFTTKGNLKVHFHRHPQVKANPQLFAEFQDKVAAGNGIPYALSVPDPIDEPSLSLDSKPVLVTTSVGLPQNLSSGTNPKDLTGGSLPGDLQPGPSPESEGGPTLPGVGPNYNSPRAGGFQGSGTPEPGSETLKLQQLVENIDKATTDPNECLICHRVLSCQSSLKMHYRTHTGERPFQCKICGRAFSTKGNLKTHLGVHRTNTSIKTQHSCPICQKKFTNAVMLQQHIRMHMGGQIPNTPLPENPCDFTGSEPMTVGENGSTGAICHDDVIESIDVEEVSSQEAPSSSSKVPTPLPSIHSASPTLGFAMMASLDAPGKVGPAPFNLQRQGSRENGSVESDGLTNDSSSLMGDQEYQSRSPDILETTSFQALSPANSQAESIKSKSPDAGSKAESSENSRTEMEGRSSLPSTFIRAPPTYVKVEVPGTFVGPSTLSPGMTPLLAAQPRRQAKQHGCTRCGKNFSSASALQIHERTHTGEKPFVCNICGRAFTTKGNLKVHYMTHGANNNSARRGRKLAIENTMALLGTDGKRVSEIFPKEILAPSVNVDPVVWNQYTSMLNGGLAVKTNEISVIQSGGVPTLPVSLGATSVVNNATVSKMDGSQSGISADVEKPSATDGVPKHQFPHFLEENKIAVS
Setting: 8-mer, flanks averaged, mean of replicates
Strand | E-score
GGTTAGAC | -0.105
GAAATTCC | 0.0357
CTTAGTCA | 0.0685
ACAGCACG | -0.232
ACCCCGGT | -0.323
GCCCTCCC | -0.333
CAGCTAAC | -0.0713
CTAGGCCA | -0.199
AATGTCGA | 0.146
ACTAATAG | 0.166
GCTCTAAA | -0.0777
ACGAGACA | -0.0919
CCGGACTC | -0.157
GGATAGTA | 0.208
ACACGCAG | -0.199
ATTCAAAC | 0.286
GATCAACA | 0.105
AGCGTGAG | -0.195
AAACAGAT | 0.218
TAGGCGAA | 0.163
CAATGGCA | 0.0725
CTTGGACC | -0.302
TATCGAAA | 0.27
GATGTAGC | -0.132
CAGTGGAC | -0.127

Series 2 — technique: RNA Bind-n-Seq; form: RNA; medium: in vitro; concentration: 365 nM; reference: no-protein control; direction: higher = stronger binding
Target: RNA binding protein fox-1 homolog 2, RRM domain, GST-SBP tag (RBFOX2, Homo sapiens, UniProt O43251-10, residues 100-194)
Setting: natural RNA segment, single round, ends assumed
Shared flanks, not repeated: GGGAGUUCUACAGUCCGACGAUC … UGGAAUUCUCGGGUGCCAA
Residues (chain): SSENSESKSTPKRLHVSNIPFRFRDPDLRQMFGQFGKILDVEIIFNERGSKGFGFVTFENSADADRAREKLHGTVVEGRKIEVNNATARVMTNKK
Strand | RBNS enrichment (R)
CUUCCUUCCCAGAGAAAAUGGAUCCUCUAUGUGGGAUUGUAGGAAAGUGACUGGGUGUGCCAAAAAUGCCCAGGGUUCUGCCCUCAAUACUAUAUUUGAUGGGGCCAAGA | 0.291
AAGCCACCCACCAGCCUAUCUAUCUUCCACUGAGAGGGACCUAGCAGAAUGAGAGAAGACAUUCAUGUACCACCUACUAGUCCCUCUCUCCCCAACCUCUGCCAGGGCAA | 0.636
CUGCUGCCCCUCCUUCCUGCUGGUUCAGGUAGCCCCAGCCACGUGGGUUAGAGUCCUGUGCUGGCCUGCCAUGGCAGCUGGCUACCUUCCAGACCAACUGUAGAGAUACC | 0.327
GCUCCGGAGACAGGCACAGCUCUGGCAGAAAGCUCAACGCUAAGGGAUCUCCUUCCCAGUUUCAGCACUUCAGUCAGGGCUGACCAACUUGAAAAGAGCCUCCGACUGUC | 0.232
AAACCAGUCUGUGUGGCCAAGCUGAUGGGAUUUGAAAAGAGUGGAUAAUUUUUAGCCUUUCCAAAAUGCAAAUAACUUGGAUAUAUUUCCAUUUUCCAGCUAUAGAGAGA | 0.585
CCUGAAUUGGAGAGCUUGACCUUUUGCUUGUUAUUUUGCAGUUUGAUUUUGGGCCUAAAGAUGCCAGUGCUUUUCAGCUGUGGUGUGCAUGUCAUUAACUACCCCUCUCU | 9.8
ACAGUUUCUAAAUAUAUGAUUUGUUGUUGAGAGAAAACAGUGAUUGUUAAUUAUGGCUUUUACUUCAUUUUAGAAAAGCACUAGAAAUUCUAAAUUUACUUUUCCUCUAG | 1.04
UAUAGUUUUGAUAACCACAGUUUUAAUUCUUUUAUCUGUGCAUAAUAAAGAUAUGUAUCAAUUAUUAUUUAUGUCAUAUCUGGUCAUCACUAAACCCUCCCCUUGGUCUG | 0.279
CUGAAAUUAUUCUGAAACACUUCUUGUCACAAGAAUUUCAGCAAAGUACAGUCAACCUAUCAGAGAGACAAGGGUGAUGCCCCGGUGAGUGUGUCUCAGCUGUGUUUAUG | 0.653
GUAAAUGUGUUUGAUGACCAGACUCUUCAUACAGUCGGCUUGGGCCACUUUAAAGGACAAAAGCCAGAGCUCAGCUUUAUCCCUCUCCCAGUGCUGGGAGCCAAAAAACU | 0.41
CUGCAUGUGUGCACACACACACAUCUUAGAUACACAAAAAGAAAUGUUCAGAUUCCUUUGAGAAUUUCAAAUGAAAAAUAAUCUUUCUGUAUGUGGUGUCUAACAUCUAC | 0.388
AGGUCCUGCCCAUCGGGCACAUGUCUCAAGCCCAUGGGGAGCAUAGCAGUCCGGGAGGCUGUGGAAAUGUUUAUUUAUAUUGUCCUUUUUUACCGAAGACAUGCAUACUC | 1.09

Series 3 — target: CCNB3, cyclin fold, Cln2 fusion (human); technique: yeast growth competition, sequencing; medium: yeast; setting: strong parent motif; reference: not given; direction: higher = stronger binding
Starting sequence: PKN2 docking peptide (human); VSAVRKLDFSDTM; partner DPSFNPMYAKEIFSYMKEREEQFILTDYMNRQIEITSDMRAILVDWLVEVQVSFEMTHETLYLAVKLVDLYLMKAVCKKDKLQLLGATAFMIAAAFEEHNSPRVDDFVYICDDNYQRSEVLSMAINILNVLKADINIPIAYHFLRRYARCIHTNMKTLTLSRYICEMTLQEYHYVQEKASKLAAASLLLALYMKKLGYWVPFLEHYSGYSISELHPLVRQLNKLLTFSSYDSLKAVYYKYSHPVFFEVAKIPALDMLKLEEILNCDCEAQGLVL
Variant | normalised enrichment score
VSAVRKLDFDDTM [S10D] | 1.86
VSAVRKLLFSDTM [D8L] | 0.859
VDAVRKLDFSDTM [S2D] | 0.793
VSAVRKLSFSDTM [D8S] | 1.02
VSAVRKLDISDTM [F9I] | 0.154
VSAVRKFDFSDTM [L7F] | -0.0984
VSAVRELDFSDTM [K6E] | 0.126
VLAVRKLDFSDTM [S2L] | 1.4
VSAVRKLDYSDTM [F9Y] | 0.227
VSAVGKLDFSDTM [R5G] | -0.182
VSAVRKLDFFDTM [S10F] | 0.505
VCAVRKLDFSDTM [S2C] | 1.69
VSAVRKLDFRDTM [S10R] | 1.05
VSGVRKLDFSDTM [A3G] | 0.278
VSAVRKLFFSDTM [D8F] | 1.43
VSAVRKLNFSDTM [D8N] | 1.48
VGAVRKLDFSDTM [S2G] | 1.58
VSAVFKLDFSDTM [R5F] | 0.425
VSDVRKLDFSDTM [A3D] | -0.169
VVAVRKLDFSDTM [S2V] | 0.989
VSKVRKLDFSDTM [A3K] | 0.0261
VSAVRKLDFVDTM [S10V] | 0.411
VSAVRKVDFSDTM [L7V] | -0.315
VSAVRKLDGSDTM [F9G] | 0.231
VSAVRKLDMSDTM [F9M] | 0.244

Series 4 — technique: protein-binding microarray; form: double-stranded DNA, one strand shown; medium: in vitro; concentration: 2200 nM top; setting: 60-bp whole probe; with: salmon DNA 0.4 mg/ml; reference: random background probes; direction: higher = stronger binding; shared flanks, not repeated: GCCTAGCAC … GTCTTGATTCGCTTGACGCTGCTG
Target: Interferon regulatory factor 7, full length, phosphomimetic (IRF7, Homo sapiens, UniProt Q92985, residues 1-503, S471D/S472D/S475D/S476D/S477D/S483D/S484D/S487D)
Sequence of UniProt Q92985 (whole entry, unmodified, looked up): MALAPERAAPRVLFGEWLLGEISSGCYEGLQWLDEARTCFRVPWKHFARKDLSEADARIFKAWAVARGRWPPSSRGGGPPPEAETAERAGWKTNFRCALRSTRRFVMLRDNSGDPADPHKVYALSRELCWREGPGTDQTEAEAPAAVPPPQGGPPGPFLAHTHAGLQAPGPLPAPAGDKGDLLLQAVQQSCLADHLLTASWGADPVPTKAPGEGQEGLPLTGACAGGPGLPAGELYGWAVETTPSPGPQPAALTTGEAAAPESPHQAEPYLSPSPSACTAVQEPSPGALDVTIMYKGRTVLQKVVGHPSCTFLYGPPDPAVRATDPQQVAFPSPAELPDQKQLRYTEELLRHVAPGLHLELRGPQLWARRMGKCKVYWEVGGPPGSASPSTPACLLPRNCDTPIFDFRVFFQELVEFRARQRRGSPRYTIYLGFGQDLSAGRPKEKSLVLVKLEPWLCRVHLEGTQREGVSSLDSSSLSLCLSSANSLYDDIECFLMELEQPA
Strand | fitted relative affinity [z-score]
GACGGTTTCGGTCGCGGGACGTGCTAG | 3.71
TTAGATATCGGGTATCGATGAGTGCTA | -0.0555
TTAGAACTGAGTATCGTTTAGTGCTAG | -0.124
GACGGACTGGGACTAGGGACGTGCTAG | -0.961
GACGATCTGAGACTGGAGACGTGCTAG | -0.308
AGGGCAGGGAGGGGGACAGCGTGCTAG | 0.471
TCAAAACTCACTCATGGCACTGTGCTA | -0.373
TTAGGCTTCGGTTTCGGTTAGTGCTAG | 6.56
GACGATATCAATTTCGAGACGTGCTAG | 1.25
TTAGGTTCAGGTTTCGGTTAGTGCTAG | 5.72
TCATTTTTCTACTTCTCACTGTGCTAG | 3.67
GACGATTTCGGTTTCGGGACGTGCTAG | 10.8
TTAGGTATCGCCTATCGGTTAGTGCTA | 0.286
AAGCAAAAATGATTGGTTGAGTGCTAG | -0.622
GACGGTCTCCATTTCCTGACGTGCTAG | 1.4

For quick reference, copied from above (series 2):
Strand | RBNS enrichment (R)
AAGCCACCCACCAGCCUAUCUAUCUUCCACUGAGAGGGACCUAGCAGAAUGAGAGAAGACAUUCAUGUACCACCUACUAGUCCCUCUCUCCCCAACCUCUGCCAGGGCAA | 0.636
CUGCUGCCCCUCCUUCCUGCUGGUUCAGGUAGCCCCAGCCACGUGGGUUAGAGUCCUGUGCUGGCCUGCCAUGGCAGCUGGCUACCUUCCAGACCAACUGUAGAGAUACC | 0.327
GUAAAUGUGUUUGAUGACCAGACUCUUCAUACAGUCGGCUUGGGCCACUUUAAAGGACAAAAGCCAGAGCUCAGCUUUAUCCCUCUCCCAGUGCUGGGAGCCAAAAAACU | 0.41
ACAGUUUCUAAAUAUAUGAUUUGUUGUUGAGAGAAAACAGUGAUUGUUAAUUAUGGCUUUUACUUCAUUUUAGAAAAGCACUAGAAAUUCUAAAUUUACUUUUCCUCUAG | 1.04
AGGUCCUGCCCAUCGGGCACAUGUCUCAAGCCCAUGGGGAGCAUAGCAGUCCGGGAGGCUGUGGAAAUGUUUAUUUAUAUUGUCCUUUUUUACCGAAGACAUGCAUACUC | 1.09
UAUAGUUUUGAUAACCACAGUUUUAAUUCUUUUAUCUGUGCAUAAUAAAGAUAUGUAUCAAUUAUUAUUUAUGUCAUAUCUGGUCAUCACUAAACCCUCCCCUUGGUCUG | 0.279
AAACCAGUCUGUGUGGCCAAGCUGAUGGGAUUUGAAAAGAGUGGAUAAUUUUUAGCCUUUCCAAAAUGCAAAUAACUUGGAUAUAUUUCCAUUUUCCAGCUAUAGAGAGA | 0.585
CUUCCUUCCCAGAGAAAAUGGAUCCUCUAUGUGGGAUUGUAGGAAAGUGACUGGGUGUGCCAAAAAUGCCCAGGGUUCUGCCCUCAAUACUAUAUUUGAUGGGGCCAAGA | 0.291
CCUGAAUUGGAGAGCUUGACCUUUUGCUUGUUAUUUUGCAGUUUGAUUUUGGGCCUAAAGAUGCCAGUGCUUUUCAGCUGUGGUGUGCAUGUCAUUAACUACCCCUCUCU | 9.8
CUGAAAUUAUUCUGAAACACUUCUUGUCACAAGAAUUUCAGCAAAGUACAGUCAACCUAUCAGAGAGACAAGGGUGAUGCCCCGGUGAGUGUGUCUCAGCUGUGUUUAUG | 0.653
CUGCAUGUGUGCACACACACACAUCUUAGAUACACAAAAAGAAAUGUUCAGAUUCCUUUGAGAAUUUCAAAUGAAAAAUAAUCUUUCUGUAUGUGGUGUCUAACAUCUAC | 0.388
